Experimental data pooled from the literature.
Protocols differ between the studies behind these lines. Values joined by “and” are separate records of one study, mostly repeats; a detail may differ.
MAPK14: Mitogen-activated protein kinase 14 (MAPK14, Homo sapiens, UniProt Q16539)

| Structure (SMILES) | target | assay | test system | setting | scale | endpoint | value |
| --- | --- | --- | --- | --- | --- | --- | --- |
| COc1ccc(NC(=O)Nc2ccc3c(c2)C(=O)N(C(C)CO)CC(C)C(CN(C)Cc2ccc4c(c2)OCO4)O3)cc1 (stereo not shown) | MAPK14 | kinase activity, KinaseProfiler |  | 0.03 µM, species human | reference: control | remaining activity | 106% |
| C=C1CC2(C(=O)OC)C=C(C(=O)OC(C)(C)C)C(=O)C1C2 (stereo not shown) | Mitogen-activated protein kinase 14, with MKK6 (MAPK14, Homo sapiens, UniProt Q16539) | protein-protein interaction, NanoBiT, measured: MKK6-p38α binding | HEK293T | 10 µM | reference: DMSO control | luminescence relative to control | 0.489 |
| CCN1CCN(Cc2ccc(C(=O)Nc3ccc(C)c(NCc4cnc5[nH]ccc5c4OC)c3)cc2C(F)(F)F)CC1 | MAPK14 | binding, competition with immobilised ligand |  | 1 µM |  | remaining binding | 0.9% |
| CC(=O)N1c2ccc(-c3ccc(CNC(=O)c4cn5cc(-c6cnc(N)nc6)nc(N6CCOCC6)c5n4)cc3)cc2CC[C@@H]1C | MAPK14 | KINOMEscan |  | 10 µM |  | remaining binding | 100% |
| NC(=O)[C@@H](O)C[C@H]1CCc2sc3ncnc(O[C@H]4CC[C@H](N5CCOCC5)CC4)c3c21 | MAPK14 | enzyme activity, inhibitor |  | 10 µM |  | inhibition | 0% |
| O=C(Cc1ccc(OCc2ccccc2)cc1)NC1(C(=O)O)CCN(C(=O)c2ccc(-c3cccc(Cl)c3)cc2)CC1 | MAPK14 | enzyme activity, inhibitor |  | 10 µM |  | activity vs control | 128% |
| CNC1C[S+]2CC[S+]3CC[S+](C1)[Ru-4]321([N]=C=S)[n]2c3ccc(OC)cc3c3c4c(c5cc(F)c[n+]1c5c32)C(=O)NC4=O (stereo not shown) | MAPK14 | KinomeScan |  | 0.1 µM | reference: untreated | remaining binding | 98% |
| Cc1cccc(-c2ccc3nc(NC(=O)C4CCCCC4)nn3c2)c1 | MAPK14 | enzyme activity, Dundee kinase panel |  | 10 µM |  | remaining activity | 86% |
| CN1CCN(Cc2ccc(NC(=O)c3cccc(C#Cc4cnc(N)c5ncccc45)c3)cc2C(F)(F)F)CC1 | MAPK14 | cell-free assay, competition with immobilised ligand |  | 0.5 µM |  | remaining binding | 0.7% |
| COc1c(Cl)cccc1Nc1c(-c2ccncc2C#C[C@@]2(C)CCCN2C(=O)/C=C/CN(C)C)[nH]c2c1C(=O)NCC2 | MAPK14 | binding, competition with immobilised ligand |  | 3 µM |  | remaining binding | 0.7% |
| CC1CCc2nc(-c3c[nH]nc3-c3ccccc3)ccc2N1 (stereo not shown) | MAPK14 | cell-free assay, competition with immobilised ligand |  | 10 µM |  | remaining binding | 14% |
| CCN1CCN(Cc2ccc(NC(=O)c3ccc(C)c(NC(=O)c4cncc(-c5cccs5)c4)c3)cc2C(F)(F)F)CC1 | MAPK14 | binding, competition with immobilised ligand |  | 1 µM |  | remaining binding | 0.7% |
| COc1cc(Nc2nccc(-c3cnn4nc(OC)ccc34)n2)cc(C(F)(F)F)c1 | MAPK14 | binding, competition with immobilised ligand |  | 1 µM |  | remaining binding | 100% |
| O=C(O)CCC(=O)c1cccc(NS(=O)(=O)c2c[nH]c3ncccc23)c1 | MAPK14 | kinase activity, radiometric |  | 10 µM |  | remaining activity | 88% |
| C#CCOC(=O)[C@]1(C)C=C(C(=O)OC(C)(C)C)C(=O)CC1 | MAPK14 | kinase activity, D-site sensor |  |  |  | initial slope | 8430 and 9600 and 8780 |
| COC(=O)[C@@]1(C)C=C(C(=O)Nc2cccc(C(=O)Nc3ccc(Nc4nccc(-c5cccnc5)n4)c(C)c3)c2)C(=O)CC1 | MAPK14 | enzyme activity, inhibitor |  | 133.3 µM, unit not given | reference: vehicle | remaining activity | 0.212 and 0.214 and 0.228 |
| Cc1cccc(O[C@H]2CCC[C@@H](C(C)CNCc3ccncc3)C2)c1 (relative stereo) | MAPK14 | kinase activity, kinome panel screening |  | 1 µM |  | inhibition | 3% |
| Cc1ccc(C)c(-c2ccc3nc(NC(=O)C4CCCCC4)nn3c2)c1 | MAPK14 | enzyme activity, Dundee kinase panel |  | 10 µM |  | remaining activity | 95% |
| O=C=[N][Ru-4]123([n]4c5ccc(O)cc5c5c6c(c7cc(F)c[n+]1c7c54)C(=O)NC6=O)[S+]1CC[S+]2CC[S+]3CC1 (stereo not shown) | MAPK14 | enzyme activity |  | 100 nM, human enzyme, with: 10 µM ATP | reference: untreated | remaining activity | 111% |
| Cc1nc2c(F)cc(-c3nc(Nc4ccc(CNC(=O)CCCCCCC(=O)NO)cc4)ncc3F)cc2n1C(C)C | MAPK14 | enzyme activity, inhibitor |  | 1 µM |  | inhibition | 24% |
| CNC(=O)C[C@H](Cc1ccc(C#N)cc1)NC(=O)c1cc(-c2ccc(CN[C@H](C)c3ccc(C)cc3)o2)ccc1Cl | MAPK14 | enzyme activity, inhibitor |  | 1 µM |  | activity vs control | 104% |
| COc1ccc(O)cc1-c1c[nH]c2ncc(-c3cncc(C(=O)N(C)C)c3)cc12 | MAPK14 | binding, competition with immobilised ligand |  | 0.2 µM |  | inhibition | -1.93% |
| C[C@H](c1ccccc1)N1C(=O)C2=Nc3cccc(Cl)c3CN2C1=S | MAPK14 | enzyme activity, inhibitor |  | 1.5 µM |  | inhibition | ≥ 85% |
| C=C1CCCCCCCCCC(CO)C1=O (stereo not shown) | MAPK14 | cell-free assay, competition with immobilised ligand |  | 10 µM |  | remaining binding | 100% |
| COc1cc(-n2cc3cc(F)cc(C(N)=O)c3n2)cc(Cl)c1C1CC(O)(CCO)Cc2ccccc21 (stereo not shown) | MAPK14 | enzyme activity, inhibitor |  | 10 µM |  | inhibition | 0.39% |
| CS(=O)(=O)Nc1cccc(-c2csc3cnc(Nc4ccc(N5CCN(CCCCCOc6cccc7c6C(=O)N(C6CCC(=O)NC6=O)C7=O)CC5)cc4)nc23)c1 (stereo not shown) | MAPK14 | probe labelling, inhibitor, KiNativ chemoproteomics | MOLT-4 | 1 µM |  | inhibition | 9.62% |
| COC(=O)[C@@]1(Cc2ccccc2)C=C(C(=O)OC(C)(C)C)C(=O)CC1 | MAPK14 (Homo sapiens, UniProt Q16539, C162A) | peptide binding, fluorescence polarization |  | 250 µM |  | fraction bound | 0.248 |
| C=CC(=O)Nc1cccc(-c2cnc3[nH]cc(C(=O)NC(C)(C)C)c3n2)c1 | MAPK14 | kinase activity |  | 0.1 µM |  | inhibition | 1% and 10% |

Repeated from above:
| Structure (SMILES) | target | assay | test system | setting | scale | endpoint | value |
| --- | --- | --- | --- | --- | --- | --- | --- |
| CNC(=O)C[C@H](Cc1ccc(C#N)cc1)NC(=O)c1cc(-c2ccc(CN[C@H](C)c3ccc(C)cc3)o2)ccc1Cl | MAPK14 | enzyme activity, inhibitor |  | 1 µM |  | activity vs control | 104% |
| COc1ccc(O)cc1-c1c[nH]c2ncc(-c3cncc(C(=O)N(C)C)c3)cc12 | MAPK14 | binding, competition with immobilised ligand |  | 0.2 µM |  | inhibition | -1.93% |
